Measured values pooled from the literature.
Protocols differ between the studies behind these lines. ± gives the spread as reported.
UniProt Q9UHI6, sequence (whole entry, looked up): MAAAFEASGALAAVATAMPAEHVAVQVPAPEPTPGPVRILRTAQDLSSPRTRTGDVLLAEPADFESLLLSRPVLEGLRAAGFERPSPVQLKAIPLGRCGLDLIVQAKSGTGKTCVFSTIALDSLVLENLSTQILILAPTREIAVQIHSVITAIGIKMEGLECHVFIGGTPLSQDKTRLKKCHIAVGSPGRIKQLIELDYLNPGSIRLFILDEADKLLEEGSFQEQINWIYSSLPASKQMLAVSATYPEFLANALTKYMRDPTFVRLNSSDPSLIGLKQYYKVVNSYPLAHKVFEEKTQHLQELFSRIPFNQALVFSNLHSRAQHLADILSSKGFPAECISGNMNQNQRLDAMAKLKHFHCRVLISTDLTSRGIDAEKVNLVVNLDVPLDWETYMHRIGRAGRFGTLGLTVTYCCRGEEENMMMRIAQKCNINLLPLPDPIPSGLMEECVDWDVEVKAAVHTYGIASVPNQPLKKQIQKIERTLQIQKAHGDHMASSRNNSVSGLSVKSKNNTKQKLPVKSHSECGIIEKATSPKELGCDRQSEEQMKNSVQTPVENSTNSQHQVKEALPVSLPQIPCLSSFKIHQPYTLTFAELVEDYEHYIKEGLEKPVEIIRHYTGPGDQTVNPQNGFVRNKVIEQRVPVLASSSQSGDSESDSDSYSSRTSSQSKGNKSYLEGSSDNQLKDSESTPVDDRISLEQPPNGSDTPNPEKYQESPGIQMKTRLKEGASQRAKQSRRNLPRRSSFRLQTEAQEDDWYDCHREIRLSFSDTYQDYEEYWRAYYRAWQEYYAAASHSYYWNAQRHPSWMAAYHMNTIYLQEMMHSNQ

Compound | tested on | test | test system | setting | scale | measurement | value
CC(=O)c1c(C)c2cnc(Nc3ccc(C4CCN(CCS(C)(=O)=O)CC4)cn3)nc2n(C2CCCC2)c1=O | – | – | beagle dog, female, fasted, blood | oral gavage, 15 mg/kg, acidified methylcellulose vehicle | – | Cmax | 345 ng/mL
O=[N+]([O-])c1ccc2c(c1)S(=O)(=O)C=C2 | – | – | male C57BL/6 mice, blood | intraperitoneal, 20 mg/kg, day 8, group average | – | mean corpuscular volume | 52 fL
C[C@]1(CO)Cc2ncn(-c3ccc(C#N)c(Cl)c3)c2C(=O)O1 | – | refers to: involuntary muscle contractions | human | 0.7 mg single dose | – | subjects with drug-related TEAE | 0%
CCS(=O)(=O)Nc1ccc(Oc2ccc(F)cc2F)c(-c2cn(C)c(=O)c3[nH]ccc23)c1 | – | fungal pneumonia leading to discontinuation | human, relapsed/refractory AML | oral, dose not given | – | treatment-emergent adverse events | 5%
Cc1cc(C)c(CNC(=O)c2cc(Cl)c3c(c2C)O[C@@](C)([C@H]2CC[C@H](N(C)C)CC2)O3)c(=O)[nH]1 | – | – | relapsed/refractory NHL patients | dose not given, trial, safety set, treatment-related TEAE grade 5 | – | incidence of lactic acidosis | 0%
COc1cc2c(Oc3ccc4[nH]c(C)cc4c3F)ccnc2cc1OCC1(N)CC1 | – | – | paediatric recurrent refractory sarcoma | concentration not given, whole group | – | grade 3 Dizzy | 0%
CN(N=O)[C@H]1CC[C@@H](c2ccc(Cl)c(Cl)c2)c2ccccc21 | – | – | cell culture medium | – | – | precipitation concentration | 100 to 1000 µM
C=CCNc1c(O)cc2c(O)c1C[C@@H](C)C[C@H](OC)[C@H](O)[C@@H](C)/C=C(\C)[C@H](OC(N)=O)[C@@H](OC)/C=C\C=C(/C)C(=O)N2 | – | – | unresectable or metastatic STS, GIST, other | intravenous, 500 mg/m^2 | – | patients with headache TEAE | 86%
O=c1nc(NO)ccn1[C@@H]1O[C@H](CO)[C@@H](O)[C@H]1O | – | – | rat maternal placenta dialysate | 25 ng/mL, more than 4 weeks, -20 °C, low concentration, with: molnupiravir 5 ng/mL | – | long-term stability | 102 ± 1.7%
Nc1nc2cc(-c3ccc4ncc(C(=O)N5CCOCC5)n4c3)ccc2o1 | – | – | human, advanced solid tumours | once-daily schedule | – | MTD | 150 mg
CN1CCN(S(=O)(=O)c2cc([N+](=O)[O-])ccc2N(CCOS(C)(=O)=O)CCOS(C)(=O)=O)CC1 | – | – | naive female NSG mice, plasma | intraperitoneal, 25 mg/kg | – | Tmax | 15 min
C=CC[N+]1([C@H]2C[C@H]3[C@@H]4CC[C@H]5C[C@H](O)[C@@H](N6CCOCC6)C[C@]5(C)[C@H]4CC[C@]3(C)[C@H]2OC(C)=O)CCCC1 | – | – | Sprague Dawley rat, plasma | intravenous, dose not given, with: sugammadex 5 mg/kg | – | terminal half-life | 18.3 min
C[C@H]1CN(c2n[nH]c3nc(N[C@H]4CC[C@H](NS(=O)(=O)CCC(F)(F)F)CC4)ncc23)CCO1 | Probable ATP-dependent RNA helicase DDX20 (DDX20, Homo sapiens, UniProt Q9UHI6) | inhibitor, Kinobeads competition profiling | – | 20 µM | baseline: vehicle | relative abundance | 1.14
C[C@@H](NC(=O)N1C(=O)[C@H](Cc2ccnc(N)c2)[C@H]1C(=O)O)C1CCCCC1 | – | – | healthy adult Chinese volunteers | continuous intravenous infusion, 2.25 mg/kg/h, 5-day infusion, CTCAE 5.0 grading | – | incidence of injection site erythema swelling | 0%
O=C1Nc2cc3[nH]nc(-c4ccncc4)c3cc2CN1Cc1ccccc1 | – | CTCAE v4.03 | advanced solid tumour patients | intravenous, 4.8 mg/kg, schedules 1/2 | – | patients with acneiform dermatitis | 25%
O=C(NCCN1CCCCC1)c1ccc(-c2ccc(N3CCSCC3)nc2)cc1 | Vero-E6 | CellTiter-Glo ATP | – | 72 h, second round 5-point | baseline: DMSO 0%, hyamine -100%, more negative, more toxic | maximum response | -24.1%
COc1ncccc1-c1cnn2ccc(N3CCN(C(=O)OC(C)C)CC3)nc12 | – | – | rat, CCI cold allodynia model, plasma | oral, 30 mg/kg, 240 min | – | free drug concentration | 92 nM
O=c1ccc2ncc(=O)n3c2n1C[C@H]3CN1CCC(NCc2cc3c(cn2)OCCC3)CC1 | – | refers to: skin subcutaneous tissue disorders | healthy human participants | oral, 1500 mg, with: rifampicin 600 mg | – | adverse event incidence | 0%
O=C(Nc1ccccc1)C1CCN(C(=O)Oc2cccnc2)CC1 | – | – | healthy women | oral, 20 mg, 7 days | – | adverse event Malaise | 0%
CCCCN1CCC(COC(=O)c2ccc(N)c(O[11CH3])c2)CC1 | – | PET | rhesus monkey, whole brain | dose not given, average | – | peak radioactivity | 2.3 SUV
CN(C)CCNC(=O)c1ccc2c(c1)C1(CCN(CC3CC3)C1)CN2Cc1ccccc1 (stereo not drawn) | Vero-E6 | CellTiter-Glo ATP | – | 72 h, second round 5-point | baseline: DMSO 0%, hyamine -100%, more negative, more toxic | maximum response | -3.4%
CC[C@H](C)[C@H](NC(=O)[C@H](Cc1ccccc1)NC(=O)[C@H](CCC(=O)O)NC(=O)[C@H](CCCNC(=N)N)NC(=O)[C@H](C)NC(=O)[C@H](C)NC(=O)[C@H](CCC(N)=O)NC(=O)[C@H](CCC(=O)O)NC(=O)[C@H](CCC(=O)O)NC(=O)[C@H](CC(C)C)NC(=O)[C@H](Cc1ccc(O)cc1)NC(=O)[C@H](CO)NC(=O)[C@H](CO)NC(=O)[C@@H](NC(=O)[C@H](CC(=O)O)NC(=O)[C@H](CO)NC(=O)[C@@H](NC(=O)[C@H](Cc1ccccc1)NC(=O)[C@@H](NC(=O)CNC(=O)[C@H](CCC(=O)O)NC(=O)[C@H](C)NC(=O)CCc1c[nH]cn1)[C@@H](C)O)[C@@H](C)O)C(C)C)C(=O)N[C@@H](C)C(=O)N[C@@H](Cc1c[nH]c2ccccc12)C(=O)N[C@@H](CC(C)C)C(=O)N[C@H](C(=O)N[C@@H](CCCNC(=N)N)C(=O)NCC(=O)N[C@@H](CCCNC(=N)N)C(=O)N[C@@H](CCCCNC(=O)COCCOCCNC(=O)COCCOCCNC(=O)CC[C@H](NC(=O)CCCCCCCCCCCCCCCCC(=O)O)C(=O)O)C(=O)NCC(=O)NCC(=O)N[C@@H](CO)C(=O)N[C@@H](CCCCNc1c(NCCCCCN(O)C(=O)CCC(=O)NCCCCCN(O)C(=O)CCC(=O)NCCCCCN(O)C(C)=O)c(=O)c1=O)C(=O)O)C(C)C [zirconium-89 labelled] | – | – | rat, intestine | iv, 3 nmol/kg, 168 h, ex vivo | – | tissue uptake | 0.12 %ID/g
CN1CC[C@@H](c2c(O)cc(O)c3c(=O)cc(-c4ccc(C(F)(F)F)cc4Cl)oc23)[C@@H]1CO | – | refers to: Anemia | AML | oral, 150 mg, intermittent dosing | – | patients with adverse event | 50%
CO[C@H]1C[C@@H]2CC[C@@H](C)[C@@](O)(O2)C(=O)C(=O)N2CCCC[C@H]2C(=O)O[C@H]([C@H](C)C[C@@H]2CC[C@@H](OC(=O)NCCOCCOCCOCCOCCOCCOCCOCCOCCC(=O)N3CCc4cc(Cn5nc(-c6ccc7oc(N)nc7c6)c6c(N)ncnc65)ccc4C3)[C@H](OC)C2)C[C@@H](O)[C@H](C)/C=C(\C)[C@@H](O)[C@@H](OC)C(=O)[C@H](C)C[C@H](C)/C=C/C=C/C=C/1C | – | – | patients with advanced solid tumours | intravenous, 8 mg weekly, grade 3 or higher | – | maculopapular rash incidence | 6.3%
Brc1ccc(Oc2cc(Br)c(Br)cc2Br)c(Br)c1 | – | ultrafiltration | cow milk whey | 20 nM nominal in whole milk | – | final permeate concentration | 0.09 nM
CC(C)C[C@H](NC(=O)[C@H](CCCCN)NC(=O)OCC1c2ccccc2-c2ccccc21)C(=O)N[C@H](C(=O)N[C@@H](Cc1ccccc1)C(=O)N[C@@H](Cc1ccccc1)C(=O)N[C@@H](CCCCN)C(=O)NCC(=O)N[C@@H](Cc1ccccc1)C(=O)N[C@@H](C)C(=O)N[C@@H](Cc1c[nH]c2ccccc12)C(=O)N[C@@H](CC(N)=O)C(=O)N[C@H](C(=O)N[C@H]1CSSC[C@@H](C(=O)N[C@@H](Cc2c[nH]cn2)C(=O)N[C@@H](CCCNC(=N)N)C(=O)N[C@@H](CCCNC(=N)N)C(=O)N[C@@H](C)C(=O)N[C@@H](CC(N)=O)C(N)=O)NC(=O)[C@H](C(C)C)NC(=O)[C@H](CCCNC(=N)N)NC(=O)[C@H](C(C)C)NC(=O)CNC(=O)[C@H](CC(N)=O)NC(=O)[C@H](CCCNC(=N)N)NC(=O)[C@H](Cc2ccc(O)cc2)NC(=O)[C@H](C(C)C)NC1=O)C(C)C)C(C)C | – | – | ICR mice, blood | intraductal mammary, 10 mg/kg, day 5 | – | mean platelet volume | 6.43 ± 0.09 fL
CN1CCN(Cc2ccc(NC(=O)c3cncc(C#Cc4cnc(N)c5ncccc45)c3)cc2C(F)(F)F)CC1 | – | – | rat | oral, dose not given | – | oral bioavailability | ~30%
CC1(C)C(C=C(Cl)Cl)C1C(=O)OC(C#N)c1ccc(F)c(Oc2ccccc2)c1 (stereo not drawn) | – | refers to: CYP2C8 | human, age 5 years, recombinant human CYP2C8 | 0.1 µM | – | enzyme contribution to clearance | 0.64%
CN[C@H](CC(C)C)C(=O)N[C@H]1C(=O)N[C@@H](CC(N)=O)C(=O)N[C@H]2C(=O)N[C@H]3C(=O)N[C@H](C(=O)N[C@H](C(=O)O)c4cc(O)cc(O)c4-c4cc3ccc4O)[C@H](O)c3ccc(c(Cl)c3)Oc3cc2cc(c3O[C@@H]2O[C@H](CO)[C@@H](O)[C@H](O)[C@H]2O[C@H]2C[C@](C)(N)[C@H](O)[C@H](C)O2)Oc2ccc(cc2Cl)[C@H]1O | – | population PK model | human neonates | – | – | clearance, typical value | 0.095 L/h
O=c1cc(-c2ccc(O)c(O)c2)oc2cc(O)cc(O)c12 | – | – | Sprague-Dawley rat, male, obese, faeces | oral, 100 mg/kg neohesperidin, 48 h | baseline: dose | faecal recovery | 0.01 ± 0.01%

For quick reference, copied from above:
Compound | tested on | test | test system | setting | scale | measurement | value
CC[C@H](C)[C@H](NC(=O)[C@H](Cc1ccccc1)NC(=O)[C@H](CCC(=O)O)NC(=O)[C@H](CCCNC(=N)N)NC(=O)[C@H](C)NC(=O)[C@H](C)NC(=O)[C@H](CCC(N)=O)NC(=O)[C@H](CCC(=O)O)NC(=O)[C@H](CCC(=O)O)NC(=O)[C@H](CC(C)C)NC(=O)[C@H](Cc1ccc(O)cc1)NC(=O)[C@H](CO)NC(=O)[C@H](CO)NC(=O)[C@@H](NC(=O)[C@H](CC(=O)O)NC(=O)[C@H](CO)NC(=O)[C@@H](NC(=O)[C@H](Cc1ccccc1)NC(=O)[C@@H](NC(=O)CNC(=O)[C@H](CCC(=O)O)NC(=O)[C@H](C)NC(=O)CCc1c[nH]cn1)[C@@H](C)O)[C@@H](C)O)C(C)C)C(=O)N[C@@H](C)C(=O)N[C@@H](Cc1c[nH]c2ccccc12)C(=O)N[C@@H](CC(C)C)C(=O)N[C@H](C(=O)N[C@@H](CCCNC(=N)N)C(=O)NCC(=O)N[C@@H](CCCNC(=N)N)C(=O)N[C@@H](CCCCNC(=O)COCCOCCNC(=O)COCCOCCNC(=O)CC[C@H](NC(=O)CCCCCCCCCCCCCCCCC(=O)O)C(=O)O)C(=O)NCC(=O)NCC(=O)N[C@@H](CO)C(=O)N[C@@H](CCCCNc1c(NCCCCCN(O)C(=O)CCC(=O)NCCCCCN(O)C(=O)CCC(=O)NCCCCCN(O)C(C)=O)c(=O)c1=O)C(=O)O)C(C)C [zirconium-89 labelled] | – | – | rat, intestine | iv, 3 nmol/kg, 168 h, ex vivo | – | tissue uptake | 0.12 %ID/g
Cc1cc(C)c(CNC(=O)c2cc(Cl)c3c(c2C)O[C@@](C)([C@H]2CC[C@H](N(C)C)CC2)O3)c(=O)[nH]1 | – | – | relapsed/refractory NHL patients | dose not given, trial, safety set, treatment-related TEAE grade 5 | – | incidence of lactic acidosis | 0%
CN[C@H](CC(C)C)C(=O)N[C@H]1C(=O)N[C@@H](CC(N)=O)C(=O)N[C@H]2C(=O)N[C@H]3C(=O)N[C@H](C(=O)N[C@H](C(=O)O)c4cc(O)cc(O)c4-c4cc3ccc4O)[C@H](O)c3ccc(c(Cl)c3)Oc3cc2cc(c3O[C@@H]2O[C@H](CO)[C@@H](O)[C@H](O)[C@H]2O[C@H]2C[C@](C)(N)[C@H](O)[C@H](C)O2)Oc2ccc(cc2Cl)[C@H]1O | – | population PK model | human neonates | – | – | clearance, typical value | 0.095 L/h
COc1ncccc1-c1cnn2ccc(N3CCN(C(=O)OC(C)C)CC3)nc12 | – | – | rat, CCI cold allodynia model, plasma | oral, 30 mg/kg, 240 min | – | free drug concentration | 92 nM
C[C@@H](NC(=O)N1C(=O)[C@H](Cc2ccnc(N)c2)[C@H]1C(=O)O)C1CCCCC1 | – | – | healthy adult Chinese volunteers | continuous intravenous infusion, 2.25 mg/kg/h, 5-day infusion, CTCAE 5.0 grading | – | incidence of injection site erythema swelling | 0%
